# Measured values collected from several papers.
# Each line is one published result; not all experiments were run side by side. ± gives the spread as reported.
# B1: Etv2 (Mus musculus, UniProt P41163); sequence looked up; chain MDLWNWDEASLQEVPPGDKLTGLGAEFGFYFPEVALQEDTPITPMNVEGCWKGFPELDWNPALPHEDVPFQAEPVAHPLPWSRDWTDLGCNTSDPWSCASQTPGPAPPGTSPSPFVGFEGATGQNPATSAGGVPSWSHPPAAWSTTSWDCSVGPSGATYWDNGLGGEAHEDYKMSWGGSAGSDYTTTWNTGLQDCSIPFEGHQSPAFTTPSKSNKQSDRATLTRYSKTNHRGPIQLWQFLLELLHDGARSSCIRWTGNSREFQLCDPKEVARLWGERKRKPGMNYEKLSRGLRYYYRRDIVLKSGGRKYTYRFGGRVPVLAYQDDMGHLPGAEGQ
# B2: FBXO5 zinc binding region (Homo sapiens); chain SEVAKTLKKNESLKACIRCNSPAKYDCYLQRATCKREGCGFDYCTKCLCNYHTTKDCSDGKLLKASCKIG
# B3: CRYBB1 1-148 (Homo sapiens, UniProt P53674); sequence looked up; chain MSQAAKASASATVAVNPGPDTKGKGAPPAGTSPSPGTTLAPTTVPITSAKAAELPPGNYRLVVFELENFQGRRAEFSGECSNLADRGFDRVRSIIVSAGPWVAFEQSNFRGEMFILEKGEYPRWNTWSSSYRSDRLMSFRPIKMDAQE
# B4: CSF1 33-496 (Homo sapiens, UniProt P09603); chain EEVSEYCSHMIGSGHLQSLQRLIDSQMETSCQITFEFVDQEQLKDPVCYLKKAFLLVQDIMEDTMRFRDNTPNAIAIVQLQELSLRLKSCFTKDYEEHDKACVRTFYETPLQLLEKVKNVFNETKNLLDKDWNIFSKNCNNSFAECSSQDVVTKPDCNCLYPKAIPSSDPASVSPHQPLAPSMAPVAGLTWEDSEGTEGSSLLPGEQPLHTVDPGSAKQRPPRSTCQSFEPPETPVVKDSTIGGSPQPRPSVGAFNPGMEDILDSAMGTNWVPEEASGEASEIPVPQGTELSPSRPGGGSMQTEPARPSNFLSASSPLPASAKGQQPADVTGTALPRVGPVRPTGQDWNHTPQKTDHPSALLRDPPEPGSPRISSLRPQGLSNPSTLSAQPQLSRSHSSGSVLPLGELEGRRSTRDRRSPAEPEGGPASEGAARPLPRFNSVPLTDTGHERQSEGSFSPQLQES
# B5: CDKN1A 9-84 del46-48 (Homo sapiens, UniProt P38936); sequence looked up; chain RQNPCGSKACRRLFGPVDSEQLSRDCDALMAGCIQEAWNFDFVTETPLEGDFAWERVRGLGLPKLYLPTGPRR
# B6: NCOR1 2057-2453 (Mus musculus, UniProt Q60974); fluorescein label; sequence looked up; chain MGQVPRTHRLITLADHICQIITQDFARNQVPSQASTSTFQTSPSALSSTPVRTKTSSRYSPESQSQTVLHPRPGPRVSPENLVDKSRGSRPGKSPERSHIPSEPYEPISPPQGPAVHEKQDSMLLLSQRGVDPAEQRSDSRSPGSISYLPSFFTKLESTSPMVKSKKQEIFRKLNSSGGGDSDMAAAQPGTEIFNLPAVTTSGAVSSRSHSFADPASNLGLEDIIRKALMGSFDDKVEDHGVVMSHPVGIMPGSASTSVVTSSEARRDEGEPSPHAGVCKPKLINKSNSRKSKSPIPGQSYLGTERPSSVSSVHSEGDYHRQTPGWAWEDRPSSTGSTQFPYNPLTIRMLSSTPPTQIACAPSAITQAAPHQQNRIWEREPAPLLSAQYETLSDSDD
# B7: Ctnnb1 (Mus musculus, UniProt Q02248); sequence looked up; chain MATQADLMELDMAMEPDRKAAVSHWQQQSYLDSGIHSGATTTAPSLSGKGNPEEEDVDTSQVLYEWEQGFSQSFTQEQVADIDGQYAMTRAQRVRAAMFPETLDEGMQIPSTQFDAAHPTNVQRLAEPSQMLKHAVVNLINYQDDAELATRAIPELTKLLNDEDQVVVNKAAVMVHQLSKKEASRHAIMRSPQMVSAIVRTMQNTNDVETARCTAGTLHNLSHHREGLLAIFKSGGIPALVKMLGSPVDSVLFYAITTLHNLLLHQEGAKMAVRLAGGLQKMVALLNKTNVKFLAITTDCLQILAYGNQESKLIILASGGPQALVNIMRTYTYEKLLWTTSRVLKVLSVCSSNKPAIVEAGGMQALGLHLTDPSQRLVQNCLWTLRNLSDAATKQEGMEGLLGTLVQLLGSDDINVVTCAAGILSNLTCNNYKNKMMVCQVGGIEALVRTVLRAGDREDITEPAICALRHLTSRHQEAEMAQNAVRLHYGLPVVVKLLHPPSHWPLIKATVGLIRNLALCPANHAPLREQGAIPRLVQLLVRAHQDTQRRTSMGGTQQQFVEGVRMEEIVEGCTGALHILARDVHNRIVIRGLNTIPLFVQLLYSPIENIQRVAAGVLCELAQDKEAAEAIEAEGATAPLTELLHSRNEGVATYAAAVLFRMSEDKPQDYKKRLSVELTSSLFRTEPMAWNETADLGLDIGAQGEALGYRQDDPSYRSFHSGGYGQDALGMDPMMEHEMGGHHPGADYPVDGLPDLGHAQDLMDGLPPGDSNQLAWFDTDL
# B8: SIRT1 del7-83 (Homo sapiens, UniProt Q96EB6); sequence looked up; chain MADEAAAAAGGEQEAQATAAAGEGDNGPGLQGPSREPPLADNLYDEDDDDEGEEEEEAAAAAIGYRDNLLFGDEIITNGFHSCESDEEDRASHASSSDWTPRPRIGPYTFVQQHLMIGTDPRTILKDLLPETIPPPELDDMTLWQIVINILSEPPKRKKRKDINTIEDAVKLLQECKKIIVLTGAGVSVSCGIPDFRSRDGIYARLAVDFPDLPDPQAMFDIEYFRKDPRPFFKFAKEIYPGQFQPSLCHKFIALSDKEGKLLRNYTQNIDTLEQVAGIQRIIQCHGSFATASCLICKYKVDCEAVRGDIFNQVVPRCPRCPADEPLAIMKPEIVFFGENLPEQFHRAMKYDKDEVDLLIVIGSSLKVRPVALIPSSIPHEVPQILINREPLPHLHFDVELLGDCDVIINELCHRLGGEYAKLCCNPVKLSEITEKPPRTQKELAYLSELPPTPLHVSEDSSSPERTSPPDSSVIVTLLDQAAKSNDDLDVSESKGCMEEKPQEVQTSRNVESIAEQMENPDLKNVGSSTGEKNERTSVAGTVRKCWPNRVAKEQISRRLDGNQYLFLPPNRYIFHGAEVYSDSEDDVLSSSSCGSNSDSGTCQSPSLEEPMEDESEIEEFYNGLEDEPDVPERAGGAGFGTDGDDQEAINEAISVKQEVTDMNYPSNKS
# B9: FDX1 61-184 (Homo sapiens, UniProt P10109); sequence looked up; chain SSSEDKITVHFINRDGETLTTKGKVGDSLLDVVVENNLDIDGFGACEGTLACSTCHLIFEDHIYEKLDAITDEENDMLDLAYGLTDRSRLGCQICLTKSMDNMTVRVPETVADARQSIDVGKTS
# B10: MIF4GD E200A (Homo sapiens, UniProt A9UHW6); sequence looked up; chain MGEPSREEYKIQSFDAETQQLLKTALKDPGAVDLEKVANVIVDHSLQDCVFSKEAGRMCYAIIQAESKQAGQSVFRRGLLNRLQQEYQAREQLRARSLQGWVCYVTFICNIFDYLRVNNMPMMALVNPVYDCLFRLAQPDSLSKEEEVDCLVLQLHRVGEQLEKMNGQRMDELFVLIRDGFLLPTGLSSLAQLLLLEIIAFRAAGWKTTPAAHKYYYSEVSD
Substance,partner,assay,system,conditions,scale,endpoint,result
BicD coiled-coil domain 1 (Drosophila melanogaster),DYNC1H1/DYNC1I2/DYNC1LI2/DYNLT1/DYNLRB1/DYNLL1 (Homo sapiens),single-molecule TIRF,,,,run length,2.9 µm
"GTIKENIIGVSYDEYRYR (CFTR 500-518 delF508 (Homo sapiens, UniProt P13569))","CSNK2A1 (Homo sapiens, UniProt P68400)","calmodulin phosphorylation, inhibitor",peptide,"160 µM, Km unchanged","reference: without peptide, lower = more inhibition",Vmax relative,3 fold
"SHMT2 dimer, PLP-free (Homo sapiens)",BRCC3/ABRAXAS2/BABAM2/BABAM1 (Homo sapiens),"DUB activity, inhibitor",,added: K63-diUb substrate,,IC50,9 nM
RCOR1 (UniProt Q9UKL0),"histone H4/SUMO3 2-92 C47S, K12 isopeptide to SUMO-3","H3K4me2 demethylation, Western blot",mononucleosomes,,"reference: non-sumoylated mononucleosomes, higher = faster demethylation",relative demethylation rate,2 fold
"Kcnt2 (Rattus norvegicus, UniProt Q6UVM4)","Kcnt1 (Rattus norvegicus, UniProt Q9Z258-1)",two-electrode voltage clamp,Xenopus oocytes,,"reference: molecule alone, higher = larger current",whole-oocyte current,25 fold
B1 (Etv2),"Gata2 (Mus musculus, UniProt O09100)",Lmo2 enhancer luciferase,C2C12,,higher = more activation,reporter activity,18 fold
CBFB/MYH11 fusion (Homo sapiens),"RUNX1 (Homo sapiens, UniProt Q01196)",ChIP,ME-1,"6 hours h, RUNX3 promoter, added: AI-10-49 1 µM","reference: DMSO, higher = more occupancy",RUNX1 occupancy,8 fold
EGF mature (Mus musculus),"Egfr whole, on cells (Rattus norvegicus)",radioligand binding,NRK,"0.3 nM, not TGF-beta treated, added: platelet TGF-beta",,specific binding,405 cpm/well
"thyrotropin-releasing hormone, pyroGlu, C-terminal amide (Gallus gallus)","protein (Gallus gallus, UniProt O93603)","MAPK/ERK signaling, SRE luciferase reporter, agonist",HEK 293,,,EC50,4.5 nM
B2 (FBXO5 zinc binding region),APC/C/CDH1 (Homo sapiens),ubiquitination assay,,,,Ki,> 80000 nM
Hu 15C1 IgG1 N325S/L328F (Homo sapiens),"FCGR1A (Homo sapiens, UniProt P12314)",LPS-induced TLR4 activation,THP1-XBlue,without IVIg,"reference: format without Fc, higher = greater potency gain",potency gain,> 1000 fold
"CCL3 (Homo sapiens, UniProt P10147)","CCR5 (Homo sapiens, UniProt P51681)","β-arrestin recruitment, agonist, Tango reporter assay",U2OS,,,EC50,6 nM
B3 (CRYBB1 1-148),"CRYBA1, Alexa Fluor 488 label (Homo sapiens, UniProt P05813)",FRET,,"pH 7.5, 37 °C, 100 mM NaCl",,subunit exchange rate,0.0143 ± 0.0045 min⁻¹
"GOLGA3 (Homo sapiens, UniProt Q08378)","PRKAR2B (Homo sapiens, UniProt P31323)",Western blot densitometry,,"rescue by overexpression, added: st-Ht31",higher = more protein,RIIβ-FLAG protein level,0.6
B4 (CSF1 33-496),"CSF1R Fc fusion D1-D5 M149K (Homo sapiens, UniProt P07333)",SPR,,"pH 7.4, NaCl 0.15 M",,kon,1.3e+07 M⁻¹ s⁻¹
"ClpP mature (Escherichia coli, UniProt P0A6G7)","clpX (Escherichia coli, UniProt P0A6H1)",rhodamine-FP modification,,added: ATPγS,"reference: ClpP alone, higher = faster modification",active-site modification rate,3 fold
RANBP2 fragment (Homo sapiens),RANGAP1/SUMO1/UBE2I RanGAP1 419-578 (Homo sapiens),SENP1 deconjugation protection,,,"reference: RanGAP1-SUMO2 protection, higher = more protection",protease protection,13 fold
clr4 D280A/D281A (Schizosaccharomyces pombe),"H3C1 fragment, K14 ubiquitin isopeptide","H3K9 methylation, MTase-Glo",,,"reference: wild-type Clr4, lower = less activity",relative HMTase activity,82%
B5 (CDKN1A 9-84 del46-48),CDK6/CCND1,"Cdk6/cyclin D1 kinase activity, inhibitor",,,"reference: wild-type p21-KID, higher = weaker inhibition",relative IC50,> 40 fold
"vrp1 (Schizosaccharomyces pombe, UniProt Q9P6R1)","myo1 965-1217 (Schizosaccharomyces pombe, UniProt Q9Y7Z8)","pyrene-actin polymerization, activator",,500 nM,"reference: no verprolin, higher = more barbed ends",barbed end formation,5 fold
FWYEAMKALYG (designed peptide; cyclic),"CIB1 (Homo sapiens, UniProt Q99828)","competition with peptide, competitor, TR-FRET",peptide,,,IC50,32 ± 10 nM
B6 (NCOR1 2057-2453),"THRB/RXRA TRβ , RXRα full length 87-461 (Homo sapiens)","coregulator recruitment, tr-FRET",,no ligand,,EC50,8.3 nM
CGA/LHB (Equus caballus),LHCGR D590Y (eel),"cAMP response, agonist, HTRF",CHO-K1,"30 min, room temperature",,EC50,0.0311 µg/mL
B7 (Ctnnb1),"Cdh1 157-884 (Mus musculus, UniProt P09803)",co-IP,HEK293T,0.2 µg,"reference: control, higher = more E-cadherin",E-cadherin coprecipitated,0.49 a.u.
B8 (SIRT1 del7-83),"TDG (Homo sapiens, UniProt Q13569)",TDG glycosylase activity,,"2 nM, 64 min, added: T/G-DNA 5 nM","reference: reactions without SIRT1, higher = more product",product formation,5 fold
"FGF2 (Homo sapiens, UniProt P09038)","FGFR3 isoform IIIc (unknown, UniProt Q61851)","cell proliferation, MTT",BaF3-FGFR3c,"20 nM, 48 h, added: heparin 4.9 µg/mL","reference: FGF 1 with heparin, higher = more proliferation",cell proliferation,94%
B9 (FDX1 61-184),"LIAS 28-372, RED-NHS dye label (Homo sapiens, UniProt O43766)",MST,,"30 min, pH 7.4, 22 °C",,Kd,6000 ± 2000 nM
B10 (MIF4GD E200A),"SLBP, phosphorylated, multiple sites (Homo sapiens, UniProt Q14493)",SPR,,"pH 7.4, 25 °C, NaCl 150 mM",,koff,0.00549 s⁻¹
CALM1 fragment (Homo sapiens),"ADCY8 1191-1214, N-terminal Cys, Cy5 label (Homo sapiens, UniProt P40145)",fluorescence polarisation,,"2 h, pH 7.4, KCl 100 mM, added: CaCl2 50 µM",,pEC50,7.27
"GABBR1 GABAB1b isoform, full length E673R (Homo sapiens)","GABBR2 (Homo sapiens, UniProt O75899)",anti-Flag M1 on intact cells,,,"reference: WT/WT heterodimer, higher = more surface expression",cell surface expression,90%
